Measurements from different studies.
Every numbered part comes from another study and shows a few of its results, in no order. Substitutions count along the parent as printed.

Study 1
Target: Sal-like protein 4, full length isoform B (SALL4, Homo sapiens, UniProt Q9UJQ4-2, residues 1-616)
Method: universal PBM
Form: double-stranded DNA, one strand shown
Medium: in vitro
Tested at: not given
Notes: 8-mer, flanks averaged, mean of replicates
Reading: higher = stronger binding
`AGGGTACA` has an E-score of 0.0421.
`CAGTTGGG` has an E-score of -0.137.
With `ACTTTACA` the E-score was 0.109.
With `ACTTTTGC` the E-score was 0.095.
`ATCTGCAT` gave an E-score of 0.146.
With `ATGCCCGA` the E-score was -0.133.
`GAGCCAAC` gave an E-score of -0.0384.
`GACCCCTC` gave an E-score of -0.244.
For `TAACGCTA`, the E-score was 0.121.
`ATGTTGGG` has an E-score of -0.0769.
`AGTCATAG` gave an E-score of 0.13.
The E-score of `TCATTCCA` is reported as 0.0319.
The E-score of `CCACCATC` is reported as -0.234.
`GTGCGCAA` has an E-score of -0.11.
With `TGGAAGAA` the E-score was 0.146.
With `GGGGGTGA` the E-score was -0.0311.
`TAACTAAA` has an E-score of 0.181.
For `ACGATGCG`, the E-score was -0.0104.
`CATACCCG` gave an E-score of -0.232.
`ATCTTGAG` has an E-score of -0.0174.

Study 2
Target: RNA binding protein fox-1 homolog 2, RRM domain, GST-SBP tag (RBFOX2, Homo sapiens, UniProt O43251-10, residues 100-194)
Method: RNA Bind-n-Seq
Form: RNA
Medium: in vitro
Tested at: 365 nM
Notes: natural RNA segment, single round, ends assumed
Relative to: no-protein control
Reading: higher = stronger binding
Residues (chain): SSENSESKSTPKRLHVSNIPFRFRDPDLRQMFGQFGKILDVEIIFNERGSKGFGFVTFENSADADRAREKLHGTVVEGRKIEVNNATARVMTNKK
For `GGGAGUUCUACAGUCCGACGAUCAGGUUCCAGACCAGCCUGCUGGCCUGCGACUCUUCACAGUGCAAAUUCCCCACAAGCGCCUGCGCCAGCCCCCUCCCUGCUACCUCACAGCCUGGGAUGGCUCCAACUUCUGGAAUUCUCGGGUGCCAA`, “RBNS enrichment (R)” read 0.342.
For `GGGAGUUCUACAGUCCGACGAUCCAAGUGCCCUUAGGAAGCCACACGGAGGGGAUGCUGGGAGUCCUGACAUAUGAAUCUAUUUAUUAUGUAGUACUGUGGCAGAGAAGGAAUCCAGGGGCCUGCACUGAUCGUGGAAUUCUCGGGUGCCAA`, “RBNS enrichment (R)” read 1.5.
For `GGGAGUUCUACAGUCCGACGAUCAGGUCAGGGCCUUCCCCAGAGCCAAGACAAUGCAGAGGAGGGCUCCUUAACUCAGACCAGGGCCAUGCCUUGCGGGGAGCAGAGAGUGUGUGCACCACACCAAAGGGAGCUGGAAUUCUCGGGUGCCAA`, “RBNS enrichment (R)” read 0.388.
`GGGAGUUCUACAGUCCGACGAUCAGACUGAACUGUGCUCAGGGAUGAGCUUUGCUCAUUUUUGUAUCCUUCCGUUCUAGCCCAGUAUCCCACUUGGACCAGGUAGGCAGAUACUCAAUAAAUGCUUGUUCCAUUGGAAUUCUCGGGUGCCAA` — result for “RBNS enrichment (R)”: 0.205.
For `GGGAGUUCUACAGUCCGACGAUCGAGCCCCUCAGAGCUUCUACAUCUGUGCAUCAGAAAUCUCACAGCCUUCUCAUGCUGCCGGCUCAUCUGGGCCCAUAGAGUGGGCUUUGCCAGUUGCUGUUGCACAGGAGUGGAAUUCUCGGGUGCCAA`, “RBNS enrichment (R)” read 0.577.
Under “RBNS enrichment (R)”, `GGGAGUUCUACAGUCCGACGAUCAACCUUGCAUUCCAUCAAGCCAAAAUAGCACACUCUGUUAGAGGAGAUACAUGUUUAAGAUAGAAUUGGAGGGAAGGACAAAAACAGAAAAAUGUUUGGGCUUUUAAGCCUGGAAUUCUCGGGUGCCAA` is recorded as 0.396.
`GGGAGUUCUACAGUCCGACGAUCACUGAAGCCCUGCCACUGUUGCUAGUCAGGGGCUUGGUUCUCCCACUUACACUGUUGACAUCUAUUUUCUGAAGUGUGUUUAAAUUAUUCAGUGCUAAUCAUUGUUUUUUUGGAAUUCUCGGGUGCCAA`: “RBNS enrichment (R)” 0.662.
`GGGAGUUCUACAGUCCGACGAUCCCUUCCCUGGAUGGAGUCAGGGCGGGGGCACUGUCCUCCACUGCUAGACACCCCCAGAAUGCCUGGCGCUCUGCAGAGCACAGUCUGAGCUGCUCUAAGAAGGGGUCUCCUGGAAUUCUCGGGUGCCAA` — result for “RBNS enrichment (R)”: 0.335.
Under “RBNS enrichment (R)”, `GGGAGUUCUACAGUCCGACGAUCGCUUCACGCAGGUUUGGCCUGGGCUUUCACUGUUGGUGAAUUUAGAGUGUCCUUUUAGGUGGGGCGGCUAUUCUAAAAGUGUCUUUCUAUCACUGUUAAGGGGGGGGGAAUGGAAUUCUCGGGUGCCAA` is recorded as 0.744.
`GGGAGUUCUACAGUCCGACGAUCUCCCAGAUGAUGACAAUGAAAUUAGUGCCUGUUUUCUUGCAAAUUUAGCACUGGGGACACUUAAAGUCUCUGCUGUCUAUGGAGUUGAUUUGGAAAUACCUUCCUGGCCCUGGAAUUCUCGGGUGCCAA`: “RBNS enrichment (R)” 0.685.
`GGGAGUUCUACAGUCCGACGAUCCGCUGCUUACCGAUCCCGGGGCUUUUCCAGCCCACGGGCGCCUGACGCAGGCUGGGGCAAGUGGUGCGUGGGGCCUGGUCCCCAAGGGGCGGCUGAGAGGCCGCCACUGAUGGAAUUCUCGGGUGCCAA` — result for “RBNS enrichment (R)”: 0.227.
`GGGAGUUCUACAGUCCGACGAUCCAGCUGCAGCAACUGCAGAUACUGCGGGCUGAGCAGGAGCAGUGGUGGCGCCUGCCCUGAGGCUGCCCUGCGAUGGCCUGGGUGGGAGAGCUGGGUCACCGGUGCCGAUGUGGAAUUCUCGGGUGCCAA`: “RBNS enrichment (R)” 0.321.

Study 3
Target: Histone acetyltransferase KAT6A, winged helix 1, GST fusion (KAT6A, Homo sapiens, UniProt Q92794, residues 1-85)
Method: protein binding microarray
Form: double-stranded DNA, one strand shown
Medium: in vitro
Tested at: not given
Notes: 8-mer, flanks averaged, mean of 2 arrays, mostly near background
Relative to: not given
Reading: higher = stronger binding
Construct (chain): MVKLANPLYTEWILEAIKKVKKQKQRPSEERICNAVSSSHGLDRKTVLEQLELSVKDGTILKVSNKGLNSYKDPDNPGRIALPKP
`CTGTTGGC` gave an E-score of -0.158.
For `CTTACTAA`, the E-score was -0.0505.
For `GTTTATAA`, the E-score was 0.0521.
`GACTAATC` gave an E-score of 0.101.
With `CCCCGAAA` the E-score was -0.0835.
For `GATGTGGA`, the E-score was -0.0989.
`GGCGTCGA` gave an E-score of 0.0863.
For `TCAGATCA`, the E-score was -0.136.
The E-score of `TACCAAGA` is reported as 0.0695.
With `GGTGACAC` the E-score was -0.0235.
With `AGCTACGA` the E-score was -0.0253.
For `ACAGCTAT`, the E-score was -0.221.
`ATACTGCG` has an E-score of 0.186.
`CACGACAG` gave an E-score of -0.155.
The E-score of `CGCGGCAC` is reported as 0.434.
With `GATCCAGC` the E-score was 0.00233.
`ACGTCAGT` gave an E-score of -0.15.
The E-score of `CAGTCAAA` is reported as -0.106.
For `CGGAGGGC`, the E-score was 0.181.
With `ATACATTC` the E-score was -0.103.
`GAAGACAA` has an E-score of -0.173.
With `AAGTCGTG` the E-score was -0.014.
`GGAAAACC` gave an E-score of 0.0268.
`GGGCCCAC` has an E-score of 0.0453.
With `ACGTATCT` the E-score was -0.113.

Study 4
Target: CCNF, cyclin fold, Cln2 fusion (human)
Method: yeast growth competition, sequencing
Medium: yeast
Notes: strong parent motif
Relative to: not given
Reading: higher = stronger binding
Starting sequence: CDC25A docking peptide (human); PPHRRRLLFACSP
`PPTRRRLLFACSP [H3T]`: “normalised enrichment score” 8.94.
Under “normalised enrichment score”, `PPHRYRLLFACSP [R5Y]` is recorded as 1.08.
For `PPHRRRLLNACSP [F9N]`, “normalised enrichment score” read 1.33.
For `PPFRRRLLFACSP [H3F]`, “normalised enrichment score” read 8.43.
`CPHRRRLLFACSP [P1C]`: “normalised enrichment score” 7.32.
For `PPHRRRLPFACSP [L8P]`, “normalised enrichment score” read 1.14.
`PPHRRRLLFAESP [C11E]` — result for “normalised enrichment score”: 8.43.
`PPNRRRLLFACSP [H3N]` — result for “normalised enrichment score”: 4.17.
For `PPHQRRLLFACSP [R4Q]`, “normalised enrichment score” read 5.94.
For `PPHRRRYLFACSP [L7Y]`, “normalised enrichment score” read 1.96.
Under “normalised enrichment score”, `PPHRRRLLFACSH [P13H]` is recorded as 6.76.
For `PPHRRRLLFACSD [P13D]`, “normalised enrichment score” read 8.79.
Under “normalised enrichment score”, `PPHRRRMLFACSP [L7M]` is recorded as 1.51.

Study 5
Target: Centromere-binding protein 1, full length, N-terminal tag (CBF1, Saccharomyces cerevisiae, UniProt P17106, residues 1-351)
Chain of UniProt P17106 (whole entry, looked up): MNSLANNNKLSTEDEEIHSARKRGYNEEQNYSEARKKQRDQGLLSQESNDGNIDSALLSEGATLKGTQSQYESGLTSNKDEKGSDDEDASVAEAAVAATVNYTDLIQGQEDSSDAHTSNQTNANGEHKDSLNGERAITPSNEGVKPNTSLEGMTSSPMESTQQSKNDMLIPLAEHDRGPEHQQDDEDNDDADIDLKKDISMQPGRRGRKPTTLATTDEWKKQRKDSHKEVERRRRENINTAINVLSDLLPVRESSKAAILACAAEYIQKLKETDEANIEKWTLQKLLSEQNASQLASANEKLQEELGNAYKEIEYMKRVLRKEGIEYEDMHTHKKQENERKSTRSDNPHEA
Method: protein-binding microarray
Form: double-stranded DNA, one strand shown
Medium: in vitro
Tested at: 0.8 µM
Notes: whole 60-bp probe, no competitor
Reading: higher = stronger binding
`GAAGAGGATTGCCTACGCGTGGGCTTGATCCACTAGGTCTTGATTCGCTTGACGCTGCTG` gave a fluorescence intensity of 494 a.u.
With `GAAATTTCTTCCCCTCTCGTGATTTCTAGATAATAGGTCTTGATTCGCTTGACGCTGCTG` the fluorescence intensity was 958 a.u.
The fluorescence intensity of `GAATACAGGCTAAGTGGTGTCACTATCCCCATTTAGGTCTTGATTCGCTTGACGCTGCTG` is reported as 522 a.u.
With `CTACATGTCGAAACGCACGCTGTTGCATGAAAATTCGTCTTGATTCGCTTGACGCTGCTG` the fluorescence intensity was 549 a.u.
For `TGTACGAAGCTATTTCTCGTGGATATAGTAGTTAGGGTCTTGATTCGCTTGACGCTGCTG`, the fluorescence intensity was 564 a.u.
`GAAAGGTTAAGTGGAAACGTGATAAACTGCGGCTAGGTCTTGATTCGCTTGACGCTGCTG` has a fluorescence intensity of 1040 a.u.
`CTAATTAGCTATAGTCACGTTTCGCGTTGAAACTTCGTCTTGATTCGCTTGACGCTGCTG` gave a fluorescence intensity of 2270 a.u.
`CTACTTCCCGCAGCTGACATCACAGGGGCGGCCTTCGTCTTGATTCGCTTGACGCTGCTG` has a fluorescence intensity of 715 a.u.
`GAACTTGTCCTTGTCCACGTTCAATACAACAGTTAGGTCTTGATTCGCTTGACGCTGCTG` gave a fluorescence intensity of 596 a.u.
`GAACTTTTTCAAATATACGTGGGGCTCATGGCTTAGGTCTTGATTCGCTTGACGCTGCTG` has a fluorescence intensity of 559 a.u.
`CTAGAGTTCTTTCACGTGCTGTGTTCGGCCCGCTTCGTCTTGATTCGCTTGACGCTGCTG` has a fluorescence intensity of 4000 a.u.
`GAAGATATCATACATCACCCCATTACGTTATTTTAGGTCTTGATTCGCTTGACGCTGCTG` has a fluorescence intensity of 532 a.u.
`CTAATAATCTAATTCCTCATGATTAAATGAGACTTCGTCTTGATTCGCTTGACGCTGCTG` gave a fluorescence intensity of 525 a.u.
`CTAGTCAAAATCGGTCACGTGGTAAAGGGTCTGTTCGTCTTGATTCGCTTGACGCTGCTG` has a fluorescence intensity of 17700 a.u.

Some of these lines once more (study 1):
`GAGCCAAC` gave an E-score of -0.0384.
`CATACCCG` gave an E-score of -0.232.
For `ACGATGCG`, the E-score was -0.0104.
`AGTCATAG` gave an E-score of 0.13.
With `TGGAAGAA` the E-score was 0.146.
`CAGTTGGG` has an E-score of -0.137.
`ATGTTGGG` has an E-score of -0.0769.
With `GGGGGTGA` the E-score was -0.0311.
`GACCCCTC` gave an E-score of -0.244.
The E-score of `TCATTCCA` is reported as 0.0319.
With `ATGCCCGA` the E-score was -0.133.
With `ACTTTACA` the E-score was 0.109.
With `ACTTTTGC` the E-score was 0.095.
